Measurements gathered from unrelated publications.
Each line is one published result; not all experiments were run side by side. ± marks the error that the study gave.
Cell line: HepG2

With `COc1cc(NC(=O)Nc2cccc(C(=O)N3CCC(C)CC3)c2)cc(OC)c1` the viability was 82.9% (cell growth or viability, MTT; 100 µM).
`C=CS(=O)(=O)c1ccccc1` gave a viability of 30 to 40% (cell growth or viability, MTT; 12.5 µg/mL, 24 h).
With `CC1CCN(C(=O)c2cccc(NC(=O)Nc3cc(Cl)cc(Cl)c3)c2)CC1` the viability was 122% (cell growth or viability, MTT; 100 µM).
With `c1cc2nc(c1)-c1cccc(n1)CCCc1ccc(cc1)OCCCCCCOc1ccc(cc1)CCC2` the viability was 85.9% (cell growth or viability, MTT; 50 µM, 24 h).
`COc1ccc2c(c1)c1c(n2CO)CN2CCc3cc(OCc4cccc(F)c4)c(OC)cc3C2C1` (stereo not shown) gave a viability of 105% (cell growth or viability; 5 µM, 24 h).
With `CC[C@H](C)[C@@H](C(=O)N[C@@H](Cc1ccc(O)cc1)C(=O)N1CCC[C@H]1C(=O)N[C@@H](Cc1ccccc1)C(=O)O)n1cc(C(Cc2ccc(O)cc2)NC(=O)[C@@H](NC(=O)[C@H](CCCNC(=N)N)NC(=O)[C@@H](N)CC(=O)O)C(C)C)nn1` (stereo partly shown) the viability was 94% (cell growth or viability, MTT; 12.5 µM, 24 h).
With `COc1cc(Oc2c(O)c(Br)c(C)c(Br)c2OC)c(C(=O)O)c(C)c1O` the viability was 93.9 ± 20.6% (MTT; 10 or 50 µM, 48 h).
For `COc1ccc(NC(=O)Nc2cccc(C(=O)N3CCC(C)CC3)c2)cc1`, the viability was 91.2% (cell growth or viability, MTT; 100 µM).
`COc1ccc2c(c1)c1c(n2CO)CN2CCc3cc(OC)c(OCc4ccccc4)cc3C2C1` (stereo not shown) has a viability of 109% (cell growth or viability; 10 µM, 24 h).
With `COc1cc(Oc2c(O)cc(C)c(Br)c2OC)c(C(=O)O)c(C)c1O` the viability was 136 ± 19% (MTT; 10 or 50 µM, 48 h).

For quick reference, copied from above:
With `COc1cc(Oc2c(O)cc(C)c(Br)c2OC)c(C(=O)O)c(C)c1O` the viability was 136 ± 19% (MTT; 10 or 50 µM, 48 h).
